Experimental data of several laboratories.
Compare with care: the assays were run in different laboratories. Values joined by “and” are separate records of one study, mostly repeats; a detail may differ. ± marks the error that the study gave.
GUK1: GUK1 (Homo sapiens, UniProt Q16774)
NADH dehydrogenase [ubiquinone] iron-sulfur protein 7, mitochondrial/NADH dehydrogenase [ubiquinone] iron-sulfur protein 2, mitochondrial/MT-ND1: NADH dehydrogenase [ubiquinone] iron-sulfur protein 7, mitochondrial/NADH dehydrogenase [ubiquinone] iron-sulfur protein 2, mitochondrial/MT-ND1 (Homo sapiens, UniProt O75251+O75306+P03886)
PDE1C isoform PDE1C2: Dual specificity calcium/calmodulin-dependent 3',5'-cyclic nucleotide phosphodiesterase 1C, isoform PDE1C2 (PDE1C, Homo sapiens, UniProt Q14123)
FFAR4: Free fatty acid receptor 4 (FFAR4, Homo sapiens, UniProt Q5NUL3)
TRPM8: Transient receptor potential cation channel subfamily M member 8 (TRPM8, Homo sapiens, UniProt Q7Z2W7)
GAP50: Glideosome-associated protein 50 (GAP50, Plasmodium falciparum, UniProt Q8I2X3)

SMILES = Nc1ncnc2c1ncn2[C@@H]1O[C@H](COP(=O)(O)OP(=O)(O)OP(=O)(O)O)[C@@H](O)[C@H]1O; target = P2X purinoceptor 7 (P2rx7, Rattus norvegicus, UniProt Q64663, I214G); assay = ion current, agonist, two-electrode voltage clamp; test system = Xenopus laevis oocytes; conditions = 33.3 µM; scale = reference: highest concentration response; endpoint = normalized current; value = 0.034 and 0.01 and 0.0333
SMILES = Nc1ncnc2c1ncn2[C@@H]1O[C@H](CO[P@](=O)(O)O[P@](=O)(O)O[P@@](=O)(O)S)[C@@H](O)[C@H]1O; target = GUK1; assay = ITC; conditions = molar ratio 3.736; endpoint = ΔH; value = -0.176 kcal/mol
SMILES = C[C@]12CCC(=O)C=C1CC[C@@H]1[C@@H]2[C@@H](O)C[C@]2(CO)[C@@H](C(=O)CO)CC[C@@H]12; target = NR3C2 (Homo sapiens, UniProt P08235); assay = reporter gene, agonist; scale = reference: baseline; endpoint = maximal response; value = 27 fold
SMILES = Oc1ccc(/C=C/c2cc(O)cc(O)c2)cc1; target = O-methyltransferase (Sorghum bicolor, UniProt A0A1B6PFV1); conditions = added: methionine 1 mM; endpoint = cooperativity factor; value = 0.65
SMILES = CCc1cc(NC(=O)COc2cccc(Cl)c2Cl)n(CC(F)(F)F)n1; target = Kir3.1/Kir3.2 (Homo sapiens, UniProt P48051+P48549); assay = thallium flux, activator; test system = HEK293; scale = reference: standard compound; endpoint = Emax; value = 83%
SMILES = NC(=O)NOCCCCCCCCCC[P+](c1ccccc1)(c1ccccc1)c1ccccc1.O=C([O-])C(F)(F)F; target = NADH dehydrogenase [ubiquinone] iron-sulfur protein 7, mitochondrial/NADH dehydrogenase [ubiquinone] iron-sulfur protein 2, mitochondrial/MT-ND1; assay = complex I-dependent respiration, Seahorse XF96; test system = HCT-116; conditions = 3 µM, 24 h; scale = reference: control; endpoint = oxygen consumption rate; value = 90.2 ± 6.64%
SMILES = COc1cccc(/C=C2\OC(=O)c3c2cc(C)[nH]c3=O)c1; target = PDE1C isoform PDE1C2; assay = enzyme activity, inhibitor; conditions = added: 3H-cGMP substrate; endpoint = binding free energy; value = -8.39 kcal/mol
SMILES = N[C@@H](Cc1ccccc1)C(=O)O; target = ADRB1 (Homo sapiens, UniProt P08588); test system = HEK293 expressing β1AR; conditions = 100 nM; endpoint = cAMP level; value = 17.5 pmol/mg protein and 20.4 pmol/mg protein and 19.4 pmol/mg protein and 25.6 pmol/mg protein and 19.8 pmol/mg protein
SMILES = C=CC(=O)N1CCC(COCC(=O)N2CCN(c3nc(-c4cnc(N)nc4C(F)F)nc(N4CCOC[C@@H]4C)n3)CC2)CC1; target = WNK3 (Homo sapiens, UniProt Q9BYP7); assay = KINOMEscan; conditions = 1 µM; endpoint = remaining binding; value = 93%
SMILES = CC[C@@H]1[C@H](F)C(=O)N[C@@H]1COc1nccc2cc(C(N)=O)c(OC)cc12; target = CAMKK2 (Homo sapiens, UniProt Q96RR4); assay = ATP-site probe binding, ActivX profiling; test system = THP-1 cell lysate; conditions = 0.01 mM, Lys2 site; endpoint = inhibition; value = 5.1%
SMILES = Nc1ccc(C(=O)O)cc1; target = BEST1 (Homo sapiens, UniProt O76090); assay = whole-cell patch clamp; test system = HEK293 transiently expressing channel; conditions = concentration not given, membrane potential -60 mV; endpoint = current density; value = -31.3 pA/pF and -61.4 pA/pF and -55.6 pA/pF and -43.3 pA/pF and -48.3 pA/pF and -30.5 pA/pF and -29.1 pA/pF
SMILES = O=C(COP(=O)(O)O)[C@@H](O)[C@H](O)[C@H](O)COP(=O)(O)O; target = PGM1 (Homo sapiens, UniProt P36871); conditions = 0.25 mM, unit not given; scale = reference: activity at 0 mM set to 100; endpoint = enzyme activity; value = 102 and 100 and 98.6
SMILES = NC(=O)NO; target = NADH dehydrogenase [ubiquinone] iron-sulfur protein 7, mitochondrial/NADH dehydrogenase [ubiquinone] iron-sulfur protein 2, mitochondrial/MT-ND1; assay = complex I-dependent respiration, Seahorse XF96; test system = HCT-116; conditions = 200 µM, 24 h; scale = reference: control; endpoint = oxygen consumption rate; value = 86.5 ± 2.07%
SMILES = CCCCCCNc1[nH]c(=O)[nH]c(=O)c1N=O; target = FFAR4; assay = antagonist, β-arrestin recruitment; test system = CHO cells; conditions = 10 µM, added: 4 µM TUG-891; endpoint = inhibition; value = 13 ± 3%
SMILES = CC[C@@H](C)[C@@H](NC(=O)[C@@H](Cc1ccc(O)cc1)NC(=O)[C@H]1CCCN1C(=O)[C@@H](CCCNC(=N)N)NC(=O)[C@H](N)Cc1c[nH]cn1)C(=O)N[C@H](C)C(=O)N[C@H](Cc1c[nH]cn1)C(=O)N[C@H](CCCNC(=N)N)C(=O)N[C@@H](C(=O)N[C@H](Cc1ccc(O)cc1)C(=O)N[C@H](CO)C(=O)N[C@H](Cc1ccccc1)C(N)=O)C(C)C; target = Transferrin receptor protein 1 (Tfrc, Mus musculus, UniProt Q62351); assay = flow cytometry; test system = MC-38; conditions = 24 h, unit not given; scale = reference: 0 h; endpoint = surface TFRC expression; value = 1.01
SMILES = CC(C)CCNc1cc(=O)[nH]c(=O)[nH]1; target = FFAR4; assay = β-arrestin recruitment; test system = CHO; conditions = 10 µM; scale = reference: 30 µM TUG-891; endpoint = agonist effect; value = 0%
SMILES = C#CCNCc1ccc(C(=O)c2ccc([N+](=O)[O-])cc2)cc1; target = TMEM97 (Homo sapiens, UniProt Q5BJF2); assay = radioligand binding; test system = RT-4 cell membranes; scale = reference: sigma1 Ki over sigma2 Ki; endpoint = Ki ratio; value = < 0.01
SMILES = OCC(O)CCON=C1C(c2c(O)[nH]c3ccccc23)=Nc2ccccc21 (stereo not drawn); target = TRPM8; assay = antagonist; test system = HEK293; conditions = 5 µM; scale = reference: control; endpoint = remaining activity; value = 100 ± 16.4%
SMILES = CCCCCCCCCNc1cc(=O)n(C)c(=O)[nH]1; target = FFAR4; assay = antagonist, β-arrestin recruitment; test system = CHO cells; conditions = 10 µM; endpoint = inhibition; value = 17 ± 2%
SMILES = NC(=O)NOCCCCCCCCCCCC[P+](c1ccccc1)(c1ccccc1)c1ccccc1.O=C([O-])C(F)(F)F; target = NADH dehydrogenase [ubiquinone] iron-sulfur protein 7, mitochondrial/NADH dehydrogenase [ubiquinone] iron-sulfur protein 2, mitochondrial/MT-ND1; assay = complex I-dependent respiration, Seahorse XF96; test system = HCT-116; conditions = 2 µM, 24 h; scale = reference: control; endpoint = oxygen consumption rate; value = 51.9 ± 15%
SMILES = COc1cc2ncnc(N3CCN(C(=O)Nc4ccc(Oc5ccccc5)cc4)CC3)c2cc1OC; target = TRPM8; assay = antagonist; test system = HEK293; conditions = 5 µM; scale = reference: control; endpoint = remaining activity; value = 114 ± 11.7%
SMILES = CCCCCCCC(=O)c1cc(OC)c(OC)c(OC)c1CC(=O)OCC; target = Nuclear receptor subfamily 4 group A member 2, LBD (Homo sapiens, UniProt P43354); assay = reporter gene, Gal4 hybrid reporter; conditions = 10 µM; scale = reference: vehicle; endpoint = activation; value = 0.98 fold
SMILES = CCCCCCCCNc1[nH]c(=O)[nH]c(=O)c1Br; target = FFAR4; assay = agonist, β-arrestin recruitment; test system = CHO cells; conditions = 10 µM; endpoint = activation; value = 0 ± 1%
SMILES = O=S(=O)(O)O; target = GUK1; assay = enzyme activity, NADH-coupled; conditions = 1 mM, added: ATP 250 µM; endpoint = reaction velocity; value = 0.0893 µM/s and 0.0929 µM/s and 0.102 µM/s
SMILES = O=c1cc(NCCCCCCO)[nH]c(=O)[nH]1; target = FFAR4; assay = antagonist, β-arrestin recruitment; test system = CHO cells; conditions = 10 µM; endpoint = inhibition; value = 13 ± 1%
SMILES = Cc1[nH]c(N)nc1CCC(=O)c1cc(F)cc(F)c1.Cl; target = HVCN1 (Homo sapiens, UniProt Q96D96); assay = proton current, inhibitor, inside-out patch clamp; test system = Xenopus oocytes; conditions = dimeric channel; endpoint = Hill coefficient; value = 1.16 ± 0.1
SMILES = Cc1nc(CSc2nc(SCc3ccc(C(C)C)cc3)nc(=O)[nH]2)cs1; target = TOP2A (Homo sapiens, UniProt P11388); assay = DNA relaxation; conditions = 125 µM, replicate 1; endpoint = relaxed DNA; value = 12%
SMILES = [O-][S+]1CCCCS1 (stereo not drawn); target = SOD1 (Homo sapiens, UniProt P00441, G94A); assay = two-compartment model; test system = SOD1 G93A transgenic mice, whole blood; conditions = iv, 10 mg/kg; endpoint = beta rate constant; value = 0.008 h⁻¹
SMILES = CC(=O)N[C@H]1C(O)O[C@H](CO)[C@@H](O)[C@@H]1O[C@H](C)C(=O)N[C@@H](C)C(=O)N[C@H](CCC(=O)O)C(N)=O (mixture of isomers); target = Nucleotide-binding oligomerization domain-containing protein 2, LRR domain (NOD2, Homo sapiens, UniProt Q9HC29); assay = inhibitor, SPR competition; conditions = concentration not given, added: LRR domain 120 nM; scale = reference: reference; endpoint = SPR response; value = 30.6%
SMILES = CC1=C(/C=C/C(C)=C/C=C/C(C)=C/C=O)C(C)(C)CCC1; target = Rhodopsin (RHO, Bos taurus, UniProt P02699, I189T); assay = retinal release, Trp FRET; test system = lipid bicelles; conditions = 28 °C, I189T mutant; scale = reference: wild-type rhodopsin; endpoint = relative koff; value = 2.35 ± 0.7
SMILES = CCCCCCNc1[nH]c(=O)[nH]c(=O)c1Br; target = FFAR4; assay = antagonist, β-arrestin recruitment; test system = CHO cells; conditions = 10 µM, added: 4 µM TUG-891; endpoint = inhibition; value = 6 ± 4%
SMILES = NCCCC(=O)O; target = uncharacterized protein (Pelagibacter ubique, UniProt Q4FKZ8); assay = differential scanning fluorimetry; test system = Candidatus Pelagibacter ubique; conditions = in-house screen; endpoint = thermal shift; value = 5.32 °C and 3.97 °C
SMILES = C[C@@H](c1cc(Cl)cc(Cl)c1)N(C)c1ncc2c(N)nc(N)nc2n1; target = GAP50; assay = binding, surface plasmon resonance; conditions = 1:1 binding model; endpoint = koff; value = 6.17e-06 s⁻¹
SMILES = CC(=C/C(=O)O)/C=C/C=C(\C)C1C=C2C(C)(C)CCCC2(C)O1 (stereo not drawn); target = Rhodopsin (RHO, Homo sapiens, UniProt P08100, P23H); assay = ER retention, immunostaining co-localization, refers to: opsin with calnexin; test system = COS-7 transfected P23H; conditions = 20.00 µM; endpoint = Pearson correlation coefficient; value = 0.54
SMILES = O=C(ON1C(=O)CCC1=O)c1cc(C(F)(F)F)cc(C(F)(F)F)c1; target = CD209 antigen (CD209, Homo sapiens, UniProt Q9NNX6); assay = binding, grating-coupled interferometry; test system = Man(α1,2)Man-PEG3 chip; endpoint = Hill slope; value = 3.7
SMILES = O=C1c2ccccc2-[n+]2ccc3c([nH]c4ccccc43)c21; target = TRPM8; assay = antagonist; test system = HEK293; conditions = 5 µM; endpoint = remaining activity; value = 104 ± 13.7%
SMILES = [H]/N=C(/N)NCC(=O)O; target = SLC6A6 (Homo sapiens, UniProt P31641, G62A); assay = binding, microscale thermophoresis; conditions = 500 µM, room temperature, added: 50 nM labelled protein; scale = higher = more binding; endpoint = normalised MST signal; value = 0.0371
SMILES = O=C(Nc1nnc(-c2ccc(Cl)s2)o1)c1ccc(Cl)s1; target = GAP50; assay = binding, surface plasmon resonance; conditions = 1:1 binding model; endpoint = koff; value = 2.35 s⁻¹
SMILES = Cc1ccc(S(=O)(=O)NCc2ccc(CNC(=O)c3ccccc3)cc2)cc1; target = CXCR4 (Homo sapiens, UniProt P61073); assay = binding, inhibitor, competitive binding; test system = MDA-MB-231; conditions = added: biotinylated TN14003; endpoint = EC; value = > 1000 nM
SMILES = O=c1cc(NCc2ccccc2)[nH]c(=O)[nH]1; target = FFAR4; assay = agonist, β-arrestin recruitment; test system = CHO cells; conditions = 10 µM; scale = reference: 30 µM TUG-891; endpoint = agonist effect; value = 0%
SMILES = CCOc1ccccc1/C=C1\OC(=O)c2c1cc(C)[nH]c2=O; target = PDE1C isoform PDE1C2; assay = enzyme activity, inhibitor; conditions = added: 3H-cGMP substrate; endpoint = ligand efficiency; value = 0.42
SMILES = Cc1ccc2c(c1C)NC(=O)[C@]21NN=C(c2ccccc2)S1; target = GAP50; assay = binding, surface plasmon resonance; conditions = 1:1 binding model; endpoint = kon; value = 3200 M⁻¹ s⁻¹

Some of these lines once more:
SMILES = NC(=O)NOCCCCCCCCCCCC[P+](c1ccccc1)(c1ccccc1)c1ccccc1.O=C([O-])C(F)(F)F; target = NADH dehydrogenase [ubiquinone] iron-sulfur protein 7, mitochondrial/NADH dehydrogenase [ubiquinone] iron-sulfur protein 2, mitochondrial/MT-ND1; assay = complex I-dependent respiration, Seahorse XF96; test system = HCT-116; conditions = 2 µM, 24 h; scale = reference: control; endpoint = oxygen consumption rate; value = 51.9 ± 15%
SMILES = COc1cc2ncnc(N3CCN(C(=O)Nc4ccc(Oc5ccccc5)cc4)CC3)c2cc1OC; target = TRPM8; assay = antagonist; test system = HEK293; conditions = 5 µM; scale = reference: control; endpoint = remaining activity; value = 114 ± 11.7%
SMILES = CCCCCCCC(=O)c1cc(OC)c(OC)c(OC)c1CC(=O)OCC; target = Nuclear receptor subfamily 4 group A member 2, LBD (Homo sapiens, UniProt P43354); assay = reporter gene, Gal4 hybrid reporter; conditions = 10 µM; scale = reference: vehicle; endpoint = activation; value = 0.98 fold
